Measurements from different studies.
A part holds a random share of what one study measured. Substitutions count along the parent as printed.

Sample 1 — method: protein binding microarray; form: double-stranded DNA, one strand shown; matrix: in vitro; concentration: not given; relative to: not given; reading: higher = stronger binding
Target: Histone acetyltransferase KAT6A, both winged helices, GST fusion (KAT6A, Homo sapiens, UniProt Q92794, residues 1-181)
Setting: 8-mer, flanks averaged, mean of 2 arrays, mostly near background
Construct (chain): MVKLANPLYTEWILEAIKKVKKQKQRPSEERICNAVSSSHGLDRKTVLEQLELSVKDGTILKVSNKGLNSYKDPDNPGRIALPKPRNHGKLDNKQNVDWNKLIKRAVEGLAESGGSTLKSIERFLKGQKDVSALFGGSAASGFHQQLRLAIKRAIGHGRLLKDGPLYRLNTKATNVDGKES
Oligonucleotide	E-score
AAAGTAGT	-0.133
AAGGAGAG	-0.129
AACGATCC	-0.0481
ATTTCAGC	-0.193
AGCGATGG	0.039
ATGGTAAT	-0.0984
CGACCGAC	0.127
CACTTGAA	-0.134
AGCATATG	-0.153
AAGTTGCG	0.015
GAATCGTC	0.0126
GGGATCAC	-0.0908
GATCTATA	-0.0074
CATATTAA	-0.0585
AACATCCA	-0.148
CCGAAATC	0.0657
CGCCTGAG	0.121
GATGTATA	-0.109
CCTGTCGC	0.0713
ACAGACCC	-0.0639

Sample 2 — method: RNA Bind-n-Seq; form: RNA; matrix: in vitro; concentration: 200 nM; setting: whole 134-nt RNA, ends assumed; with: 150 mM KCl; relative to: input library; reading: higher = stronger binding
Target: Fragile X messenger ribonucleoprotein 1, C-terminal low-complexity region (Fmr1, Mus musculus, UniProt P35922)
Shared flanks, not repeated: GGGAGUUCUACAGUCCGACGAUC … UGGAAUUCUCGGGUGUCAAGG
Oligonucleotide	log2 enrichment
GUCCUGUGCUACACAUCGUAUGUACCGAAUCGGAAAAAGGGGAAAAAGGGGAAAAAGGAAAGUAUUAUGUUACGCCGUUCGGAUCUGCAC	-0.101
CCUGUGCUACACAUCGUAUGUACCGAAUCGGGGAAAGGGGAAAAAGGGGAAAAAAAGGGGAAAGUAUUAUGUUACGCCGUUCGGAUCUGC	0.0388
UGGCCCUGGUGGGAUGCGGGGAGGAAGAGGUGGCCUCAUGGAUCGUGGUGGUCCCGGUGGAAUGUUCAGAGGUGGCCGUGGUGGAGACAG	0.301
CUCAAGUCCUGUGCUACACAUCGUAUGUACCGAAUCGGGAGGGAAAGGGAGGGAAAGUAUUAUGUUACGCCGUUCGGAUCUGCACUUCCA	1.16
AGUCCUGUGCUACACAUCGUAUGUACCGAAUCGGAAAGGUUUUUUUGGUUUUUUUGGAAAGUAUUAUGUUACGCCGUUCGGAUCUGCACU	-1.33
UCAAGUCCUGUGCUACACAUCGUAUGUACCGAAUCGGCCCGGGCCCGGGCCCGGGAAAGUAUUAUGUUACGCCGUUCGGAUCUGCACUUC	-0.719
CACUGACAACACGCACCCACACAGACACAGAGGGAAGGGGUUGGGAUGGGGACAGGGUGCACAGCAGGGCGGGGUAGGACCCCAGCCCCU	1.33
UCCUGUGCUACACAUCGUAUGUACCGAAUCGGGAAAGGGUUUUUUUGGGUUUUUUUGGGAAAGUAUUAUGUUACGCCGUUCGGAUCUGCA	-0.0443
UCCUGUGCUACACAUCGUAUGUACCGAAUCGGCCCCCCCGGCCCCCCCGGCCCCCCCGGGAAAGUAUUAUGUUACGCCGUUCGGAUCUGC	0.312
ACCAUGCAGGUGGGCAUCUUUGGGAAGUGGGGCAAGGGUGGGAUAGGGAGGGGGGUAACACUUUGGGAACAGGUGGUCCCAGGUCGUUUC	0.7
CACAGACAACACGCACCCACAAAAACACAGAGGGAAGGGGUUGGGAUGGGGACAGGGUGCACAGCAGGGCGGGGUAGGACCCCAGCCCCU	1.28
CUCAAGUCCUGUGCUACACAUCGUAUGUACCGAAUCGGCCCGGCCCGGCCCGGGAAAGUAUUAUGUUACGCCGUUCGGAUCUGCACUUCC	-0.164
UGGCACUGGUGGCAUGCGGGGAGGAAGAGGUGGCCUCAUGGAUCGUGGUGGUCCCGGUGGAAUGUUCAGAGGUGGCCGUGGUGGAGACAG	0.283
UCCUGUGCUACACAUCGUAUGUACCGAAUCGGGGAAAAAGGGGAAAAAGGGGAAAGGGGAAAGUAUUAUGUUACGCCGUUCGGAUCUGCA	0.465

Sample 3 — method: competition protein-binding microarray; form: double-stranded DNA, one strand shown; matrix: in vitro; concentration: 2 µM; with: Cbf1 competitor, 0.05 µM; reading: higher = stronger binding; shared flanks, not repeated: … GTCTTGATTCGCTTGACGCTGCTG
Target: Phosphate system positive regulatory protein PHO4, full length, GST-tagged (PHO4, Saccharomyces cerevisiae, UniProt P07270, residues 1-312)
Setting: whole 60-bp probe, lowest competitor level
Construct (chain): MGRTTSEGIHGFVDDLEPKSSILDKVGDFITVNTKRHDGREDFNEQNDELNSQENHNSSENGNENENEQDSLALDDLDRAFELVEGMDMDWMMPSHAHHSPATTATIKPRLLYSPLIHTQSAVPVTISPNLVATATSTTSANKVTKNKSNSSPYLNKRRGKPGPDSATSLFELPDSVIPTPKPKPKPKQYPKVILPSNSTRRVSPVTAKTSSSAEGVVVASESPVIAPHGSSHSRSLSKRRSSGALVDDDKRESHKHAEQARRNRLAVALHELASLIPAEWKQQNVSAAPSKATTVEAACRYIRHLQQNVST
Oligonucleotide	fluorescence intensity [a.u.]
ATTTCGATGTACATCCTCGTGATGGTAAATATGGCC	8710
CGGCCGGAGTTTTATCACATGGATGTTTCTTATTCC	7790
AAGTGCCGTTTCTAAAACGTGGTCGAATAATCCTCA	11900
GTCTTGTCTCATTGTCTAGTGGGTGTCCCCACTTCA	4400
CTTCCGCGCCGTATGTGTGTGTGTCCAAGGAGTTTG	5810
AAGATAAAAAACGGAAACGTGCTTTTTTAATTTAAT	15500
CTTTGTCTCCATTGCGGCGTGCTAATTCTTCTACTA	8030
TGCGCAACAACTTGGTGCGTGGGTGTATGTCTAGAA	8690
CGTCCTAGCGATTGACGGGTGGGTGCCATGAGGAAG	7200
ACTCTTTCGCTAGTCCATGTGATTCTTTGAGAGTTT	10500
CTTCCAAGGTGAGGACACGGGTTCGATTCTCGTACC	9270
TTGAGTGTCGTCTGGCACGTGGAGGTCCCTCCTCAG	13900
CTTTCCCGATCTTGCTAGGTGGGTGTAGCACATTTG	4400
CTTCTGTAAATTTGGAGCGTGGGTGGACGCGCCCCG	7730
CCAAGTTAGAAGAAACATGTGACGCCATTTCTGCGG	8680
TTATCGGTCTCGAGTCACGTGCGGAGACGCGGAGGC	15100
TCGTTTAGAGTTATCATCGTGCCAGGACCCAGTGAT	11100
AAAGCGGTAATTTGGGTCGTGGGTGCAGATATCTAT	9310
TCCAACGTATCAGTGCGCGTAATCCTTCTCTTGGTA	3480
AAGGTTTCGTTATCTACCGTGTCGGAGTTAGAAGTG	5450
CTTTCCCGATCTTGGTGTGTGGGTGTAGCACATTTG	6880
TGCCCGCCATCGAGTCACATGTTCCTACAGATGAAG	9360
CGGGGTTAAGTTTGCTGCGTGGGTGGCTTGCAGCAG	8580
AGACCAGATGGTCTTCACGTTATCAATGTTGGTAAG	5960
AAAGCGGTAATTTGCTTCGTGGGTGCAGATATCTAT	6450

Sample 4 — target: CCNF, cyclin fold, Cln2 fusion (human); method: yeast growth competition, sequencing; matrix: yeast; setting: strong parent motif; relative to: not given; reading: higher = stronger binding
Starting sequence: RBL2 docking peptide (human); STTRRRLFVENDS
Variant	normalised enrichment score
SYTRRRLFVENDS [T2Y]	8.13
STHRRRLFVENDS [T3H]	4.93
STTRRRLFVENAS [D12A]	7.27
STTRRCLFVENDS [R6C]	6.98
STTRRRSFVENDS [L7S]	-0.179
STTKRRLFVENDS [R4K]	7.2
STTRRRMFVENDS [L7M]	1.3
STTRRNLFVENDS [R6N]	3.41
STTGRRLFVENDS [R4G]	3.26
STTRRRLKVENDS [F8K]	2.84
STTRARAFVENDS [R5A L7A]	-0.137
STTRRRLFVENNS [D12N]	6.92
STTRRRLFVKNDS [E10K]	6.52
STTRRRLFVQNDS [E10Q]	9.33
STTVRRLFVENDS [R4V]	6.81
STTRRWLFVENDS [R6W]	1
SITRRRLFVENDS [T2I]	7.39
SMTRRRLFVENDS [T2M]	7.88
STWRRRLFVENDS [T3W]	5.94
STTRRRLRVENDS [F8R]	2.1
STARRRLFVENDS [T3A]	8.18
STTRRRLFVENGS [D12G]	8.3
STTRRRFFVENDS [L7F]	1.13
STTYRRLFVENDS [R4Y]	5.19
STTRQRLFVENDS [R5Q]	1.1

Sample 5 — method: RNA Bind-n-Seq; form: RNA; matrix: in vitro; concentration: 100 nM; relative to: input RNA pool; reading: higher = stronger binding
Target: RING finger protein unkempt homolog, zinc fingers 1-6, SBP tag (UNK, Homo sapiens, UniProt Q9C0B0, residues 30-357)
UniProt Q9C0B0, sequence (30-357, looked up): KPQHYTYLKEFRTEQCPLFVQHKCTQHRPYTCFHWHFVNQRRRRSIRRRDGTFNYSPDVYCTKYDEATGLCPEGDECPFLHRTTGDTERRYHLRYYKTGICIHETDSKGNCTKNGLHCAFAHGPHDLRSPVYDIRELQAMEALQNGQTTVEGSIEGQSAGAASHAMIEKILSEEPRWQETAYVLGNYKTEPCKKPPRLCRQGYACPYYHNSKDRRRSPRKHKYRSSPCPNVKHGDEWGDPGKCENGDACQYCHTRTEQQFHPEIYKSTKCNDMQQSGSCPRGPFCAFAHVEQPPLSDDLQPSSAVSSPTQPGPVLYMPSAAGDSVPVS
Setting: RNA with constant flanks, vertebrate orthologous sites, ends assumed
Shared flanks, not repeated: GGGAGUUCUACAGUCCGACGAUC … CAACAGAGGAUUGAGCAUCA
Oligonucleotide	bound/input enrichment
CCAUUUUAUAUAUGGAUGUAUUUAUACUGGCCAAACAUUUUUGACUUUUUGUUUUCGUAGGUCUUGUUGUGUAUACCUGCACCGUCUGUCUCCUUCGCUGAAGGGCUAGAGUUUUAACUU	0.355 ratio
UUUUUUAAAGUUUUUUUAAUUUAAUUUUUCCUUUUGGGGGUUAAAGUUUGCUCUACCAAAUAGUGAUUGUAACCAAUUGAUCUGUUUUGGAUGUUGCUAUAGUGACAUGCAGUUAUAUAU	0.758 ratio
GGGACGCUUUGAGGUAAAAAUUUUAAUUAAGAGCUGAUCACAAGCACAAAACUUUCCCACUAGCCAUUUAAUAAGUUAAAAAAGAUACACAAACCUACUAGUCUUGAACAAACUGUCAUA	2.58 ratio
CAGCUGAUUCACUCAUUGGGAGAGCUGCACAUAUAGCUGUUCUUGAUUCGGAAAUAUUUUUAGAGAAAUUCUUUCUGGUUGCUGCCCUCAAAUAUUUCCAGUAGGAUAAAAACAUUGUUA	1.26 ratio
UAUUCAGUCAUGGAGAAACAGAUAUUAAAAUAAUUUUAUGGCACUGUUCUUUAGUUUUAUUAGUUUUACAGAAGUGUUUGCAAACAACAGGAGCUGACUAUUGACGAGAAAGCGGAUUUU	1.09 ratio
GUAGUCCUCCACUUAGGGUCAGCCUCAAGUAUACGGAAUUUCUGAAAAAUGUAUUAUAUCUAUCUAGUUAAGUUGAGUUUGAUAUUUUUUACUAGACUGUAAGCAAAGAUGGCAUCUUAU	0.617 ratio
GUUCCCGAGCAGCAGUUAGACAGGUUUCCCUCUAUUCUCUCAAAAAGCAAAAGGCCCCCGGAGAUUCCCUACCCACCCAACUAUACUGUUCUGGGCUUGUUUCCUGUUAUCUUUCACAUA	0.602 ratio
UUGUGGAAAAGGAGACGGGGAAAACUAGAUAGAUUCUCCCUUCCAAAAAUAUAUCCUGUUGUUAAUUGGGUGUGUAGAACUGGCUAAGAAUUUUUUUUUUUCAAAUGCUGCAUCACAAAG	0.748 ratio
CACUUAUAUUGUGGCAUAUAGUCAACAUGGAAGUUAGACCAGCUCGGCUGAUUUGAAAUUUAGAUUUUUUUAAUUAUGUACUGGGGACAGGUUUUUGUCGCUUUACAUUGCUUCCUAGUU	5.99 ratio
UAAUGUGUCUUUAUUUAUUGAAGGUAGUUUUGUGCAAAGGACUGUGUUAGAUUUAAAAAUUAGGGGAUUAAUUCCUUUUUGUUGUGUUGCUUUUGUUAUUGAAAAUAAAUAGAAUUUUGU	2.12 ratio
CGUAGCAUCGAGAGUGUGUGUGUUCUCACACUUGUACUCUCACAAAGAAGAGAGCUCACAUUGGUCCUUACACAACCGAUGAUGCUGUUCUGUUUCUGCUUUCUAUUUUUACAUAUGCAU	0.744 ratio

Excerpt of the above (sample 1):
Oligonucleotide	E-score
AGCGATGG	0.039
ATGGTAAT	-0.0984
CGACCGAC	0.127
CACTTGAA	-0.134
AGCATATG	-0.153
AAGTTGCG	0.015
GAATCGTC	0.0126
GGGATCAC	-0.0908
GATCTATA	-0.0074
CATATTAA	-0.0585
AACATCCA	-0.148
CCGAAATC	0.0657
CGCCTGAG	0.121
GATGTATA	-0.109
